{"data": "Assay results collected from several papers", "target": "Pancreatic triacylglycerol lipase (PNLIP, Sus scrofa, UniProt P00591)", "effect on": "enzyme activity", "action": "inhibitor", "One construct used (P00591 1-450)": "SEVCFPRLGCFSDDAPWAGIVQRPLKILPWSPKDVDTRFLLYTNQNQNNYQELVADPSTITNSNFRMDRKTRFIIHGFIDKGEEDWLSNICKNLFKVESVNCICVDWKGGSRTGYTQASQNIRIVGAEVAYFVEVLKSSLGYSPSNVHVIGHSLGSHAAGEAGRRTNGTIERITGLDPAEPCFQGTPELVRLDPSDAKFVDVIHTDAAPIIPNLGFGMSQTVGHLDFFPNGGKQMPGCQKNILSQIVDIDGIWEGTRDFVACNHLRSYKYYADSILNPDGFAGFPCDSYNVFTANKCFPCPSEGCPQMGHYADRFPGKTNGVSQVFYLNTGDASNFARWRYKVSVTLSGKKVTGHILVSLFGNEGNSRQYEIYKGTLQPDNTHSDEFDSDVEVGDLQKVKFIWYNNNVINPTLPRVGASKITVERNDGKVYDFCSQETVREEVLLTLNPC", "note": "Protocols differ between the studies behind these lines."}
{"SMILES": "C=C1CCC(=O)C(C)CCC2C1CC2(C)C(=O)C=CC(C)(C)O (centres unmarked)", "method": "absorbance", "IC50": "16.9 µM"}
{"SMILES": "COc1cc(O)c(C(=O)O)c(C2=C(C)C[C@@H](O)C2=O)c1", "method": "fluorescence", "pH": "pH 8", "IC50": "20.8 µM"}
{"SMILES": "COc1ccc(/C=C/C(=O)CC(=O)/C=C/c2ccc(OC)cc2)cc1", "method": "absorbance", "IC50": "188 µM"}
{"SMILES": "C=C1CC(O)CC(C)=CCC2C1CC2(C)O (centres unmarked)", "method": "absorbance", "IC50": "> 500 µM"}
{"SMILES": "O=C(O[C@H]1Cc2c(O)cc(O)cc2O[C@@H]1c1ccc(O)c(O)c1)c1cc(O)c(O)c(O)c1", "IC50": "13.6 µM"}
{"SMILES": "O=C(OC[C@@]1(O)C(=O)C=C[C@@H](OC(=O)c2ccccc2)[C@@H]1O)c1ccccc1", "method": "absorbance", "IC50": "2.78 µM"}
{"SMILES": "O=C(O[C@@H]1Cc2c(O)cc(O)cc2O[C@@H]1c1cc(O)c(O)c(O)c1)c1cc(O)c(O)c(O)c1", "IC50": "13.3 µM"}
{"SMILES": "COc1cc(/C=C/C(=O)CC(=O)/C=C/c2ccc(O)cc2)ccc1O", "method": "absorbance", "IC50": "95.4 µM"}
{"SMILES": "C=C1CC[C@@H]2O[C@@]2(C)CC[C@H]2[C@H]1C[C@]2(C)C(=O)/C=C/C(C)(O)COC(C)=O (some centres unmarked)", "method": "absorbance", "IC50": "425 µM"}
{"SMILES": "O=C(O[C@H]1Cc2c(O)cc(O)cc2O[C@@H]1c1ccc(O)cc1)c1cc(O)c(O)c(O)c1", "IC50": "19.8 µM"}
{"SMILES": "COc1ccc(/C=C/C(=O)CC(=O)/C=C/c2cc(OC)c(OC)c(OC)c2)cc1", "method": "absorbance", "IC50": "169 µM"}
{"note": "Some of these lines once more:"}
{"SMILES": "C=C1CC[C@@H]2O[C@@]2(C)CC[C@H]2[C@H]1C[C@]2(C)C(=O)/C=C/C(C)(O)COC(C)=O (some centres unmarked)", "method": "absorbance", "IC50": "425 µM"}
